# Published values of several laboratories.
# Numbered parts are unrelated; each lists some results of a single study. Substitutions count along the parent as printed.

# Series 1
# Target: RING finger protein unkempt homolog, zinc fingers 1-6, SBP tag (UNK, Homo sapiens, UniProt Q9C0B0, residues 30-357)
# Sequence of UniProt Q9C0B0 (30-357, looked up): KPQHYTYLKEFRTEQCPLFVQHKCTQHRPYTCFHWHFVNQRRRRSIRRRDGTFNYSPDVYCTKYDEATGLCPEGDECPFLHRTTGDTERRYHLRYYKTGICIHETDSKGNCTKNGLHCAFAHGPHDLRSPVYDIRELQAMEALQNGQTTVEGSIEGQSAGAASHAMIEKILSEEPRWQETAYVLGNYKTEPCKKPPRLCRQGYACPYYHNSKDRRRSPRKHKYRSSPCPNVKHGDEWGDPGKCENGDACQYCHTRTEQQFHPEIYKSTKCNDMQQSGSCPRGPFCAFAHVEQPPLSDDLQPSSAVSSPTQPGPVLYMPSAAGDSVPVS
# Technique: RNA Bind-n-Seq
# Molecule type: RNA
# Matrix: in vitro
# Tested at: 100 nM
# Notes: RNA with constant flanks, vertebrate orthologous sites, ends assumed
# Baseline: input RNA pool
# Direction: higher = stronger binding
# Constant ends, left off below: GGGAGUUCUACAGUCCGACGAUC … CAACAGAGGAUUGAGCAUCA
Sequence,bound/input enrichment [ratio]
AAGUAUCCCAGUUUACUGUGUUGAGUUGGCAUUGUACAGAAAUUAACAGCCAUAUUGGUCUAGAAACGUUAAACUUAAUUUUUUUCCAUUUGUACAGGGGUAACGCACUGUAUUAAAUAU,0.706
CCACGCUUUUAAAAGCCAUUUUGCCAGCAGCGGCAGCCCUGUUUGUGUAGUUCCUCUUAGGGCAAACCUUGUUGAGUCAUAAAUGUUGUAUUCAAGUUUCCAAGUGAUUGUGCAUUUUUA,0.301
UUACAGUCAUUGAUGGACUCUAUUUUUUUAUUAUUACUUGGACCUUGGUCGAUUUUAUACUAGCAAAAUGUCUUGUUUUAAUUUGUGUUUUUUUUGGGGGGCGGGGAGGGAGUGAACUUG,4.04
ACAGAAGAAGAGCUCACAACUCAGAAGGAACUAUUAGAAGAGUUUCUAAUGGCUGAAAGCUAGGAAAAAUUAGGACAAUUUUACAAAUGAGCCAUCAAAACAAAACAAAAAGAAAUGGAA,1.36
AGAGCUCACAAACUGAAAGGAAAACUAUUAAAGAGUUUCUAAUAUUAACUAUUAGAAAGCUAGGAAAGAUUAGGACAAUUUUACAAAUGAGCAAUUAAAAAGAAAAGGAUCUGGGAACUA,0.327
CUGAAGCUUUGUGUUUGGCUGCACCUGCGUAAGCUGCUACAAAUAGAAUAAAGAAUUUCAUAGCCUGUAUCUAUCAUUUAGAUGCAUGGGAAAUGGGCUUUGCACACAAUGGGUUUGGAG,1.13

# Series 2
# Target: CCNE1, cyclin fold, Cln2 fusion (human)
# Technique: yeast growth competition, sequencing
# Matrix: yeast
# Notes: weak parent motif
# Baseline: not given
# Direction: higher = stronger binding
# Starting sequence: SLBP docking peptide (human); ARYKRKLLINDFG
Variant,normalised enrichment score
R2A,-0.000424
D11M,2.18
R5K L8F,0.531
A1H,0.724
D11H,0.459
K4M,0.983
N10S,0.665
F12H,0.0467
G13T,-0.111

# Series 3
# Target: PABPC1L2, full length, GST fusion (mouse, UniProt A0ABA7IW68)
# Technique: RNAcompete
# Molecule type: RNA
# Matrix: in vitro
# Tested at: 20 nM
# Notes: 7-mer, probes averaged, single round
# Baseline: mean of 7-mers
# Direction: higher = stronger binding
# Target sequence (chain): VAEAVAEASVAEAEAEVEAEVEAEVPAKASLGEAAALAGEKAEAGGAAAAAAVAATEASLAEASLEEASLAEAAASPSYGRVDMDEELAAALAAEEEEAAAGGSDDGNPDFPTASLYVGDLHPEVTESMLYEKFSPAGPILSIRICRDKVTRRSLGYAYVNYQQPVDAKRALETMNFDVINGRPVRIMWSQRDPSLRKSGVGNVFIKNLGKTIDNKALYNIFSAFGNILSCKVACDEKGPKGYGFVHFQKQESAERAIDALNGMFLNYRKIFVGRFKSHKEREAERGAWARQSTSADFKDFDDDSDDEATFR
Sequence,7-mer Z-score
GCACAGU,-0.173
CGCAUAU,-0.211
AUGGAAC,0.202
AAAGCGA,1.27
CGUAUAG,-0.211
GUUAGCC,-0.383
UUUAAAG,0.479
UCCAUGG,-0.104
UACCGAC,-0.271

# Series 4
# Target: ABI1, truncated, D143A, DHFR fusion (Arabidopsis thaliana)
# Technique: DHFR PCA, deep sequencing
# Matrix: yeast
# Notes: methotrexate growth selection, single substitutions
# With: (+)-ABA 17 µM
# Baseline: wild-type fitted maximum
# Direction: higher = stronger binding
# Starting sequence: PYL1, truncated, DHFR fusion (Arabidopsis thaliana); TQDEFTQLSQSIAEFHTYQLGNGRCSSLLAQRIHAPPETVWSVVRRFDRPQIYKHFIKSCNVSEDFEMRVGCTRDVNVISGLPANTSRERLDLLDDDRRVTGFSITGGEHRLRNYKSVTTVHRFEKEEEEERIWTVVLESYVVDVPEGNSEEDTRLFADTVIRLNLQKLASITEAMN; partner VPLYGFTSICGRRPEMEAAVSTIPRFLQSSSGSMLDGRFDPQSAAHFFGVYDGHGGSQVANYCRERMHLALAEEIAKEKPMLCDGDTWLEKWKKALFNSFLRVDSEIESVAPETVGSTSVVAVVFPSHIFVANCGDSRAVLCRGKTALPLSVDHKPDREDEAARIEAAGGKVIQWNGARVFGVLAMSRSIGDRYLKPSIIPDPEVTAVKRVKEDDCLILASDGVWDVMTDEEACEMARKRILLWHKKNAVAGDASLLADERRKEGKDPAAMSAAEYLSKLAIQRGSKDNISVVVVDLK
Variant,relative binding score
Y18I,49%
F47R,-5.98%
V118P,-4.72%
R69W,23.6%
E129C,81.3%
T86I,50.6%
S42R,78.7%
L93T,77%
H122C,24.8%

# Series 5
# Target: Centromere-binding protein 1, full length, His-tagged (CBF1, Saccharomyces cerevisiae, UniProt P17106, residues 1-351)
# Sequence of UniProt P17106 (whole entry, looked up): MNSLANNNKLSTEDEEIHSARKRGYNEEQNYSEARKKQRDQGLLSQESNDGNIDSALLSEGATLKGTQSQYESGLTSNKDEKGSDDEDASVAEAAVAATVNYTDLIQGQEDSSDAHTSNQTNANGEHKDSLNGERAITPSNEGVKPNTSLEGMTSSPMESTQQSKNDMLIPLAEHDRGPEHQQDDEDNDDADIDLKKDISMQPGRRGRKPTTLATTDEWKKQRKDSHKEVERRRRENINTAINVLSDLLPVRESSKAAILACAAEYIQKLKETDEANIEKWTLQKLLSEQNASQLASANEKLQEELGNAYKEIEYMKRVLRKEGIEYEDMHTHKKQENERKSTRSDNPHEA
# Technique: competition protein-binding microarray
# Molecule type: double-stranded DNA, one strand shown
# Matrix: in vitro
# Tested at: 2 µM
# Notes: whole 60-bp probe, lowest competitor level
# With: Pho4 competitor, 0.05 µM
# Direction: higher = stronger binding
# Constant ends, left off below: … GTCTTGATTCGCTTGACGCTGCTG
Sequence,fluorescence intensity [a.u.]
CAGTCTCTGCAAAAGCACGTGCGATGTCTCTGGTGT,1440
TAATCCTCAACACTACCCGTGGTGAATGTCCTAAAG,68.5
GCAAACGACGAGCTTCACGTTCAGATTCCATTAGAA,72.6
TTGCGCTAACGAAACCACATGGATCCTCCACACAAC,100
CTAACGAAGGTTTGCAACGTGGGTGACAAGCCAAGT,83.7
CGTCCCCCACCATGTCGCGTGTGAAGAATTGTGGGT,130
CGGGGTTAAGTTTGCCGTGTGGGTGGCTTGCAGCAG,54.3
CGGATGCGCTGGCTGTACGTGACGGTGAAGTAGCTA,67.2
GTCTTGTCTCATTTTCACGTGATCTTCCCCACTTCA,4390
TTAATATGGTGGAGTCAGCTGAGAAGTTTTTTCAAT,149
CTTTCCCGATCTTGGAAAGTGGGTGTAGCACATTTG,75.7
ATCCGATTGGATGGACACATGCGATTCAACGCCGCT,80.5
GTCTTGTCTCATTGTCGCGTGGGTGTCCCCACTTCA,107
TTCGCCCACAAAAGTTGCGTGCCGATCTAGTTCCAG,72.1

# Series 6
# Target: Sal-like protein 4, full length isoform B (SALL4, Homo sapiens, UniProt Q9UJQ4-2, residues 1-616)
# Technique: universal PBM
# Molecule type: double-stranded DNA, one strand shown
# Matrix: in vitro
# Tested at: not given
# Notes: 8-mer, flanks averaged, mean of replicates
# Direction: higher = stronger binding
Sequence,E-score
CCTGCTCA,-0.182
AGCGCCGG,-0.413
ACCATTTC,0.168
AAGTTCGT,-0.112
CCCATGCC,-0.357
CTTTACGC,0.0699
AAGCGCAC,-0.161
AACAGTAC,0.0957
GCCATATA,0.252
CAGTCGAC,0.0267
CGCACCAC,-0.0719
AGCATAGG,-0.181
ATGTAACC,0.0584
ACTGGCAG,-0.164
CGTGATCA,0.181
GCAGGGGA,-0.274
CGCGACCG,-0.298
CCCCAGAG,-0.257
CTCTAATC,-0.0474
GTTGGTAA,0.118
CGCAACAG,-0.0506
ACGTGGAA,0.0408
CTCAGGCC,-0.277
AAAGATTG,0.106
CTCGGTGC,-0.378

# Series 7
# Target: Fragile X messenger ribonucleoprotein 1, C-terminal low-complexity region (Fmr1, Mus musculus, UniProt P35922)
# Technique: RNA Bind-n-Seq
# Molecule type: RNA
# Matrix: in vitro
# Tested at: 200 nM
# Notes: whole 134-nt RNA, ends assumed
# With: 150 mM LiCl
# Baseline: input library
# Direction: higher = stronger binding
# Library: 7-deaza-guanosine replaces G
# Constant ends, left off below: GGGAGUUCUACAGUCCGACGAUC … UGGAAUUCUCGGGUGUCAAGG
Sequence,log2 enrichment
UCCUGUGCUACACAUCGUAUGUACCGAAUCGGGGAAAAAGGGGAGGGGAAAAAAAGGGGAAAGUAUUAUGUUACGCCGUUCGGAUCUGCA,0.187
AAGUCCUGUGCUACACAUCGUAUGUACCGAAUCGGCCCCGGGGCCCCGGGCCCCGGGAAAGUAUUAUGUUACGCCGUUCGGAUCUGCACU,-2.5
ACCAUGCAGGUGGGCAUCUUUGGGAAGUGGGGCAAGGGGGGGAUAGGGAGGGGGGUCACACUUUGGGAACAGGUGGUCCCAGGUCGUUUC,1.37
UCCUGUGCUACACAUCGUAUGUACCGAAUCGGGGUGGGGUUUUUGGGGAAAAAAAGGGGAAAGUAUUAUGUUACGCCGUUCGGAUCUGCA,-1.6
UGGAGAAGGAACGUGAUAAAGAAGUAAGCGAUGAUGAGGCUGAAGAAAAGGAAGACAAAGAAGAAGAAAAAGAAAAAGAAGAGAAAGAGU,1.11
CAAGUCCUGUGCUACACAUCGUAUGUACCGAAUCGGGGUUUGGGGAGGGGUGGGGAAAGUAUUAUGUUACGCCGUUCGGAUCUGCACUUC,-0.364
GUCCUGUGCUACACAUCGUAUGUACCGAAUCGGGGUUUUUUUGGGGAAAGGGGUGGGGAAAGUAUUAUGUUACGCCGUUCGGAUCUGCAC,-1.36

# Series 8
# Target: Histone acetyltransferase KAT6A, winged helix 2, GST fusion (KAT6A, Homo sapiens, UniProt Q92794, residues 85-181)
# Technique: protein binding microarray
# Molecule type: double-stranded DNA, one strand shown
# Matrix: in vitro
# Tested at: not given
# Notes: 8-mer, flanks averaged, mean of 2 arrays, mostly near background
# Baseline: not given
# Direction: higher = stronger binding
# Residues (chain): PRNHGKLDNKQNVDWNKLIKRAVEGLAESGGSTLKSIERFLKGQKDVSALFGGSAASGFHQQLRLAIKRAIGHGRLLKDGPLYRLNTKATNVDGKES
Sequence,E-score
CGGTCCAA,0.0534
ACAACGTG,-0.0988
CATGCCGG,0.262
GAACAATC,0.0183
GACTAGGA,-0.119
AGTGGAGA,-0.0646
CGCTGGTC,0.0131
ACGCTAAG,-0.135
GGCACAGA,-0.0601
GCACCCTA,-0.0492
AAATGATG,-0.0185
CGTAGTCA,-0.208
AAGCATGC,-0.106
CTGTGCAC,-0.101
CACCGAAG,0.0231
ACAGATGC,-0.13
AAGATCTC,0.0468
CGGGAACC,0.115

# Excerpt of the above (series 2):
Variant,normalised enrichment score
D11M,2.18
R5K L8F,0.531
A1H,0.724
D11H,0.459
K4M,0.983
N10S,0.665
F12H,0.0467
G13T,-0.111
